Experimental data collected from several papers.
Compare with care: the assays were run in different laboratories. Values joined by “and” are separate records of one study, mostly repeats; a detail may differ. ± marks the error that the study gave.
FAAH: Fatty-acid amide hydrolase 1 (FAAH, Homo sapiens, UniProt O00519)
UniProt O00519, sequence (whole entry, looked up): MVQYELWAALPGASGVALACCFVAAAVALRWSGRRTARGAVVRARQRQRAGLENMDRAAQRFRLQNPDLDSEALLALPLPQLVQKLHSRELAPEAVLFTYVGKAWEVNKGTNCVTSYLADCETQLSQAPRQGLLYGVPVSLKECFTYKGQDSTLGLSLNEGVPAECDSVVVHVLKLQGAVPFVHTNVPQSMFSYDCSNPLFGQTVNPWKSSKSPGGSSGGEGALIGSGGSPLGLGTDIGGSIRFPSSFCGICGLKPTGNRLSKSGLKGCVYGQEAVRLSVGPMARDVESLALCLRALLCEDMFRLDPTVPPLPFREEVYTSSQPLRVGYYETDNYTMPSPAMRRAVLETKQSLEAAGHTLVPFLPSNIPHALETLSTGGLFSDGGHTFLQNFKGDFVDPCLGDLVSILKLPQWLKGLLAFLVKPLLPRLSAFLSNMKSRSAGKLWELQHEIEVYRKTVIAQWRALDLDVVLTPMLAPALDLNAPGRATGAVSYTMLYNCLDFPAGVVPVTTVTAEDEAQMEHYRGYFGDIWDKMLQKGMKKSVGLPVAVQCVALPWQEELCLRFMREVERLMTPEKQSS
CBL SH2 domain: E3 ubiquitin-protein ligase CBL, SH2 domain (CBL, Homo sapiens, UniProt P22681)
EPHX2: Bifunctional epoxide hydrolase 2 (EPHX2, Homo sapiens, UniProt P34913)
UniProt P34913, sequence (whole entry, looked up): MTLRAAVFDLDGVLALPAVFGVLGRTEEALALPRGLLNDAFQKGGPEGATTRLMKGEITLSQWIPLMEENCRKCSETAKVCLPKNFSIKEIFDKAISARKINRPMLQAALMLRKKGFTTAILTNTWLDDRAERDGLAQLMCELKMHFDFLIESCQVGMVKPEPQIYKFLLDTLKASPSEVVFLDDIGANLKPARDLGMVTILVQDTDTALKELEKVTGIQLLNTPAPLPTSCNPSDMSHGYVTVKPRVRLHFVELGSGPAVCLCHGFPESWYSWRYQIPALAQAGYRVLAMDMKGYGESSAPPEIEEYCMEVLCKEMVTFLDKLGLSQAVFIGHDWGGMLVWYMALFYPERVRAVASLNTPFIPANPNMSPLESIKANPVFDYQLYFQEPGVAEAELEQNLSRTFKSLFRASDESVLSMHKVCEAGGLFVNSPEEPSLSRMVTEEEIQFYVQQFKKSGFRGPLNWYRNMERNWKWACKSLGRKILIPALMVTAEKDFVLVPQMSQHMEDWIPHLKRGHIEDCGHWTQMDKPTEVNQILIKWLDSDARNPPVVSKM
UniProt Q9BYW2, sequence (whole entry, looked up): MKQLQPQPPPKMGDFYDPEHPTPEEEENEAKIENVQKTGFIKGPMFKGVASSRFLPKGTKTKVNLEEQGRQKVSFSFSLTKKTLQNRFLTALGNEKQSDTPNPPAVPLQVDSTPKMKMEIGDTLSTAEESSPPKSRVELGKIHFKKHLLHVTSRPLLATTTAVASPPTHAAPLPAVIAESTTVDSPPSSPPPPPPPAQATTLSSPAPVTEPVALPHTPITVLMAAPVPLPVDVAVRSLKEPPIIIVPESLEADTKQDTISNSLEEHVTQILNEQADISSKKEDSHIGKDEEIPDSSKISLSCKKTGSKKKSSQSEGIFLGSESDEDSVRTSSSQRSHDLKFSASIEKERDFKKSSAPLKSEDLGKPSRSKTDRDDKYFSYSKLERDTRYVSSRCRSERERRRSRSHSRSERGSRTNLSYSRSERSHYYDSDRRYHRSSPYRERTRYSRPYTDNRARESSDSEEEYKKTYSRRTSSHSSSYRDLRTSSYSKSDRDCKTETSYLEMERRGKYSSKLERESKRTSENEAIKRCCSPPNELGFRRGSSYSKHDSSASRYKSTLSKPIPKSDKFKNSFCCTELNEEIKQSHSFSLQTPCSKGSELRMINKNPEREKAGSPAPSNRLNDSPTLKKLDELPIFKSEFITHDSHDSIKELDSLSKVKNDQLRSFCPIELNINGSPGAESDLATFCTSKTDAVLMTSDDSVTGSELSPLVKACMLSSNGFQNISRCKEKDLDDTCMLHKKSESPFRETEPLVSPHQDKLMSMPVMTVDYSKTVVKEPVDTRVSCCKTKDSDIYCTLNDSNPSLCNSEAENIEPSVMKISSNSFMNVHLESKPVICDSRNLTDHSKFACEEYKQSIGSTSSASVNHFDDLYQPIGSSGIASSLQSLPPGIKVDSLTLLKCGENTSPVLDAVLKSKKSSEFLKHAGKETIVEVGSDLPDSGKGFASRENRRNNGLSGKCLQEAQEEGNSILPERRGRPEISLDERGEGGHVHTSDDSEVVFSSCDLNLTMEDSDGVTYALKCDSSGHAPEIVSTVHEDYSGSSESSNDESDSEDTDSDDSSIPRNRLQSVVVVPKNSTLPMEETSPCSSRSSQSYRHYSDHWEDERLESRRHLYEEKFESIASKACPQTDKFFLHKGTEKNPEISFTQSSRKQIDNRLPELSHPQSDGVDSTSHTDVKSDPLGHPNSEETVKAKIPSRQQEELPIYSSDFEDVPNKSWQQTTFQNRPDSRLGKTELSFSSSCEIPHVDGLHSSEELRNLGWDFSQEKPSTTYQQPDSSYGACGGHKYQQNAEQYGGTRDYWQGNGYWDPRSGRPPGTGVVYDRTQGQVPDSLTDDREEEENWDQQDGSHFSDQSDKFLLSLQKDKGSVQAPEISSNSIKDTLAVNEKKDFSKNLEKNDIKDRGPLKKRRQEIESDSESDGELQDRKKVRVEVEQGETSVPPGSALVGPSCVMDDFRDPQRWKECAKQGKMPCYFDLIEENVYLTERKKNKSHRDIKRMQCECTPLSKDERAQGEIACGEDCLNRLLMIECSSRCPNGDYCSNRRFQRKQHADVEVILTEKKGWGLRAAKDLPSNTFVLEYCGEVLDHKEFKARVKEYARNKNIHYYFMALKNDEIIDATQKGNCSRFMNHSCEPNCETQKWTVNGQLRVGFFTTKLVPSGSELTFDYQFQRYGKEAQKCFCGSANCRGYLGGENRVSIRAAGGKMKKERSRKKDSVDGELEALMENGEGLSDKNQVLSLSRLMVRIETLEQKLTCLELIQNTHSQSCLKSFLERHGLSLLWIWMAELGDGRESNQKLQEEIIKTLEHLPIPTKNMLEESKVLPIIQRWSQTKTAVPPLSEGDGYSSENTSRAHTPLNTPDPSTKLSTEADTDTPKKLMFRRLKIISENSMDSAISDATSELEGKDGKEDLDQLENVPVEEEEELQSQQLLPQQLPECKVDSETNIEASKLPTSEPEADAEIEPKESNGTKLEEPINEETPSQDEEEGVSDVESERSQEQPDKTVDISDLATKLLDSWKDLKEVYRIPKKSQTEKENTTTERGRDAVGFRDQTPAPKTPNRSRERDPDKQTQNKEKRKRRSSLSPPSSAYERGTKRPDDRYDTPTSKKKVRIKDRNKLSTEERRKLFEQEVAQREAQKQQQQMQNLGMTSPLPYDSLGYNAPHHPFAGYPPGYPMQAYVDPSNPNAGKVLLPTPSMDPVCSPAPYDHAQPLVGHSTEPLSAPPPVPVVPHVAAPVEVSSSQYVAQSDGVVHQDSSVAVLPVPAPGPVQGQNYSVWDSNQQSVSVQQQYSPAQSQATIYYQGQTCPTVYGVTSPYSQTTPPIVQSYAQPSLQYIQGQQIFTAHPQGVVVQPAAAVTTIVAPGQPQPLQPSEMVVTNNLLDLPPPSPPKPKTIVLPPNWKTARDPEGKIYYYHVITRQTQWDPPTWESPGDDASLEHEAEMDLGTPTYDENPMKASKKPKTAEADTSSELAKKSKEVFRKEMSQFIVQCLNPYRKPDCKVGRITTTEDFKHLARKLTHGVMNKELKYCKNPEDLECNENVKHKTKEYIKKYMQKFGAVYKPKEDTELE
UniProt O42275, sequence (whole entry, looked up): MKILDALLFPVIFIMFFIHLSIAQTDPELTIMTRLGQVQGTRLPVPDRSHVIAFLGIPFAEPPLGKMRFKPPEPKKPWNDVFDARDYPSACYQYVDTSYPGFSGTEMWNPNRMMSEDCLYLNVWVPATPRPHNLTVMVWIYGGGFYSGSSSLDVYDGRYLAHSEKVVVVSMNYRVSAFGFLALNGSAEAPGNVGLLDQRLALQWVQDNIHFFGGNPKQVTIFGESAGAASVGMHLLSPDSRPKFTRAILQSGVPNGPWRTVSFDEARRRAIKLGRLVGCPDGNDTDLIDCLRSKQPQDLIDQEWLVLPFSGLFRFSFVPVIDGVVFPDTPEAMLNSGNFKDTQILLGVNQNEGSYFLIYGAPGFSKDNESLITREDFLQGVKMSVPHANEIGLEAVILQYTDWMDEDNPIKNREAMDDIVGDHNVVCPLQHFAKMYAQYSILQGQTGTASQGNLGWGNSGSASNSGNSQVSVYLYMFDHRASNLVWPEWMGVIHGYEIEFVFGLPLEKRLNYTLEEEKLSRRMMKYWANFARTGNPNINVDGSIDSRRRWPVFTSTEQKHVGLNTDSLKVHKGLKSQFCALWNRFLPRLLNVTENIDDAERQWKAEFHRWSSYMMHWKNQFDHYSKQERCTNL
UniProt P34914, sequence (whole entry, looked up): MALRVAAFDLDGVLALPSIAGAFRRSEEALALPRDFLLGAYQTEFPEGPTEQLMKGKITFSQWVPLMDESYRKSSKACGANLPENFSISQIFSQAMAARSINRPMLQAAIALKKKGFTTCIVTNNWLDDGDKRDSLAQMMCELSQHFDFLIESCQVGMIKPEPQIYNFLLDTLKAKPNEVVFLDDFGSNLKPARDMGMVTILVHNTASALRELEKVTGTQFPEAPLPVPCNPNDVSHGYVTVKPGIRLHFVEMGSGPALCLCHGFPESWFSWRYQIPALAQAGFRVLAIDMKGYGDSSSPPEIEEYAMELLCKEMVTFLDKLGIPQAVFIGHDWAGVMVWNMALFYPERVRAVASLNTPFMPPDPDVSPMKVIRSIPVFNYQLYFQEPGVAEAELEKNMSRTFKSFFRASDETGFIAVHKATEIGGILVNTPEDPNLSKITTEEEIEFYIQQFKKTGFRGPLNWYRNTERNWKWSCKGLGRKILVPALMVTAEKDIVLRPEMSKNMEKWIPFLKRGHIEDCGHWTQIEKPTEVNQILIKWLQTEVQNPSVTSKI

Under Kd, CC(C)C[C@H](NC(=O)[C@@H]1CCCN1)C(=O)N[C@@H](Cc1c[nH]cn1)C(=O)N[C@@H](CO)C(=O)N[C@H](C(=O)N[C@@H](C)C(=O)O)[C@@H](C)OP(=O)(O)O is recorded as “no binding” (Serine/threonine-protein kinase PLK4, PB3 domain (PLK4, Homo sapiens, UniProt O00444); binding, microscale thermophoresis; pH 8.0).
With `nociceptin` the EC50 was 0.19 ± 0.04 nM (Nociceptin receptor (OPRL1, Homo sapiens, UniProt P41146); cAMP level, agonist; human receptor, cells).
For Cc1ccc(CN2CCC(C(=O)Nc3ccc(-c4cnc5ccccc5c4)cc3)CC2)cc1, the IC50 was 81.4 nM (FAAH).
With CC[C@H](C)[C@H](NC(=O)[C@H](CC(=O)O)NC(=O)[C@H](CC(C)C)NC(=O)[C@H](Cc1ccc(OP(=O)(O)O)cc1)NC(=O)[C@@H](NC(=O)[C@@H]1CCCN1C(=O)[C@H](CO)NC(=O)[C@H](C)NC(=O)[C@H](CCCCN)NC(=O)[C@H](C)NC(=O)[C@H](CC(C)C)NC(=O)[C@H](CC(N)=O)NC(=O)[C@H](CCC(N)=O)NC(=O)c1ccc2c(c1)C(=O)OC21c2ccc(N(C)C)cc2Oc2cc(N(C)C)ccc21)C(C)C)C(=O)N[C@@H](CC(C)C)C(=O)NCC(=O)N[C@@H](CC(=O)O)C(=O)O the Kd was 1530 nM (CBL SH2 domain; human protein).
O=C(Nc1ccc(-c2cnc3ccccc3c2)cc1)C1CCN(Cc2ccc([N+](=O)[O-])cc2)CC1 has an IC50 of 15.8 nM (FAAH).
For COc1ccc(NC(=O)NC2CCN(c3c(NS(=O)(=O)c4ccc(C)cc4)c(=O)c3=O)CC2)cc1, the IC50 was 281 ± 35.4 nM (EPHX2).
O=c1[nH]cnc2c(CN3C[C@H](CO)[C@@H](O)C3)c[nH]c12 gave a Ki of 2.3 ± 0.02 nM (Purine nucleoside phosphorylase (Bacteroides fragilis, UniProt Q5LAA3)).
O=C(Nc1ccc(F)c(Cl)c1)NC1CCN(c2c(NS(=O)(=O)Cc3ccccc3)c(=O)c2=O)CC1 has an IC50 of 741 ± 45.2 nM (Bifunctional epoxide hydrolase 2 (Ephx2, Mus musculus, UniProt P34914)).
With CC(C)C[C@H](NC(=O)[C@H](CC(C)C)NC(=O)[C@H](CO)NC(=O)[C@@H]1CCCN1C(=O)[C@H](Cc1ccc(OP(=O)(O)O)cc1)NC(=O)[C@@H]1CCCN1C(=O)[C@H](C)NC(=O)[C@@H](NC(=O)[C@H](CS)NC(=O)[C@H](CCCCN)NC(=O)[C@@H](NC(=O)[C@H](CC(N)=O)NC(=O)[C@@H](NC(=O)[C@H](Cc1ccc(O)cc1)NC(=O)c1ccc2c(c1)C(=O)OC21c2ccc(N(C)C)cc2Oc2cc(N(C)C)ccc21)C(C)C)C(C)C)C(C)C)C(=O)N[C@@H](CO)C(=O)N[C@@H](CO)C(=O)N[C@@H](CCC(=O)O)C(=O)N[C@@H](CC(=O)O)C(=O)O the Kd was 1190 nM (CBL SH2 domain; human protein).
For Cc1cc(OCc2nnc(SC3CCCC3)n2-c2cccnc2)ccc1-c1ccc(S(C)(=O)=O)cc1, the GI50 was 1300 nM (T47D).
With O=C(O)CCCC[C@@H]1SC[C@@H]2NC(=O)N[C@@H]21 the IC50 was 1330 nM and 1300 to 1700 nM (Histone-lysine N-methyltransferase SETD2 (SETD2, Homo sapiens, UniProt Q9BYW2); inhibitor; apparent, bead displacement artifact).
With O=C(Nc1ccc(Cl)c(F)c1)NC1CCN(c2c(NS(=O)(=O)Cc3ccccc3)c(=O)c2=O)CC1 the IC50 was 19.5 ± 2.6 nM (EPHX2).
Cc1ccccc1CN1CCC(C(=O)Nc2ccc(-c3cnc4ccccc4c3)cc2)CC1 has an IC50 of 7970 nM (Acetylcholinesterase (ache, Electrophorus electricus, UniProt O42275)).
With C(#Cc1c[nH]c2nccc(-c3ccncc3)c12)c1cccnc1 the AUC(0-inf) was 1220 ± 617 ng·h/mL (mouse C57BL/6, male; oral, 20 mg/kg).
The IC50 of O=C(Nc1ccc(-c2cnc3ccccc3c2)cc1)C1CCN(CC2CCCCC2)CC1 is reported as 684 nM (EPHX2).
Cc1ccccc1S(=O)(=O)Nc1c(N2CCC(NC(=O)Nc3ccc(C(F)(F)F)cc3)CC2)c(=O)c1=O gave an IC50 of 0.9 ± 0.1 nM (EPHX2).
